Published values from different studies.
Numbered parts are unrelated; each lists some results of a single study.
Sequence of UniProt P37173 (whole entry, looked up): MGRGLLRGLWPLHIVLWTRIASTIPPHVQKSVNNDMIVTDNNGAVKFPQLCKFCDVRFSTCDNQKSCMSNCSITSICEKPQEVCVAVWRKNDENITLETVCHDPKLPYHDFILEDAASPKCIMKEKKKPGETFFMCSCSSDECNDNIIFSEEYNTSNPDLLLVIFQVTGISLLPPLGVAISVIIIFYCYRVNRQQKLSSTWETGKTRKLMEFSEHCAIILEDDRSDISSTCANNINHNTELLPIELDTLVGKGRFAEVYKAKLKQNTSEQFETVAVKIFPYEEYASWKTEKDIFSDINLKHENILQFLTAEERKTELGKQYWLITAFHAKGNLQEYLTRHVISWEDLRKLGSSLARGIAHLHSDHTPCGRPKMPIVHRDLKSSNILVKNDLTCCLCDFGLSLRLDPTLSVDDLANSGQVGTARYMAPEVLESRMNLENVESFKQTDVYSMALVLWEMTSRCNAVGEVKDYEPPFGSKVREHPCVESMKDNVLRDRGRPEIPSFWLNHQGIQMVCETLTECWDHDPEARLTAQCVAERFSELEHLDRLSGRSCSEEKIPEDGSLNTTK
Sequence of UniProt Q9Y2K2 (whole entry, looked up): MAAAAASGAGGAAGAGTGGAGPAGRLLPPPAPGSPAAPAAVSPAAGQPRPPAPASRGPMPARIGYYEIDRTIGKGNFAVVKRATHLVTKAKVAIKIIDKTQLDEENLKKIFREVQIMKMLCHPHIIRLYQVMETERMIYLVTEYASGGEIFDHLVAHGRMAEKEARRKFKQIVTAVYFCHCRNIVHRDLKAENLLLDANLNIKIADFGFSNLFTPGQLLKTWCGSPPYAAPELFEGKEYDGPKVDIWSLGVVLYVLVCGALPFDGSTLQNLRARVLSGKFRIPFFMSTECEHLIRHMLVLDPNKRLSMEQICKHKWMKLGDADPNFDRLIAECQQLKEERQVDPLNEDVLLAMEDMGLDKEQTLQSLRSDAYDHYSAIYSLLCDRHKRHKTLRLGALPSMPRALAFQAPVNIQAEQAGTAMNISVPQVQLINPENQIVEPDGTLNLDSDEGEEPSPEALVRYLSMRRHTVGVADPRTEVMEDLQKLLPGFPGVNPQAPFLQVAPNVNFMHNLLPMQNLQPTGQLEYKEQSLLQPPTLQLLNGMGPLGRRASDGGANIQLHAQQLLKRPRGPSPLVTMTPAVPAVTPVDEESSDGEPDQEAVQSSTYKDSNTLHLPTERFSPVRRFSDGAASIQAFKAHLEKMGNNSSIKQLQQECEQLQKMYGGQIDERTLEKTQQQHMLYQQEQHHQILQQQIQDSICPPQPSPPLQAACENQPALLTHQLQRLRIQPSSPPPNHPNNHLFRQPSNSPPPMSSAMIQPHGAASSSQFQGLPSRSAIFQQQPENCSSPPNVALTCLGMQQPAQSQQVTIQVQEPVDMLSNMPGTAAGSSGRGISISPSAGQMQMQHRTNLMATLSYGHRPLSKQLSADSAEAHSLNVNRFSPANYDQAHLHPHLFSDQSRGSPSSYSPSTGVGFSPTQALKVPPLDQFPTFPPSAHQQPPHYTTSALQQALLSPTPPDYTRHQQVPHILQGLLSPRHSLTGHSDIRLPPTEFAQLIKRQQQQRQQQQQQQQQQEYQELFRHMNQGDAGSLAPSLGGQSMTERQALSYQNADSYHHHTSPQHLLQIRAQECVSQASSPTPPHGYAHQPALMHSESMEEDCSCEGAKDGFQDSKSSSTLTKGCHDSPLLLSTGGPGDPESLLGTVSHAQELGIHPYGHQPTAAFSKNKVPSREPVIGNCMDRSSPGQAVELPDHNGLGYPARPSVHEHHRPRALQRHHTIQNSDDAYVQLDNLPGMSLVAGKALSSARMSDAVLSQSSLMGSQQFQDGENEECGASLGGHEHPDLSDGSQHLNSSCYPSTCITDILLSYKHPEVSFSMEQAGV
Sequence of UniProt P80192 (whole entry, looked up): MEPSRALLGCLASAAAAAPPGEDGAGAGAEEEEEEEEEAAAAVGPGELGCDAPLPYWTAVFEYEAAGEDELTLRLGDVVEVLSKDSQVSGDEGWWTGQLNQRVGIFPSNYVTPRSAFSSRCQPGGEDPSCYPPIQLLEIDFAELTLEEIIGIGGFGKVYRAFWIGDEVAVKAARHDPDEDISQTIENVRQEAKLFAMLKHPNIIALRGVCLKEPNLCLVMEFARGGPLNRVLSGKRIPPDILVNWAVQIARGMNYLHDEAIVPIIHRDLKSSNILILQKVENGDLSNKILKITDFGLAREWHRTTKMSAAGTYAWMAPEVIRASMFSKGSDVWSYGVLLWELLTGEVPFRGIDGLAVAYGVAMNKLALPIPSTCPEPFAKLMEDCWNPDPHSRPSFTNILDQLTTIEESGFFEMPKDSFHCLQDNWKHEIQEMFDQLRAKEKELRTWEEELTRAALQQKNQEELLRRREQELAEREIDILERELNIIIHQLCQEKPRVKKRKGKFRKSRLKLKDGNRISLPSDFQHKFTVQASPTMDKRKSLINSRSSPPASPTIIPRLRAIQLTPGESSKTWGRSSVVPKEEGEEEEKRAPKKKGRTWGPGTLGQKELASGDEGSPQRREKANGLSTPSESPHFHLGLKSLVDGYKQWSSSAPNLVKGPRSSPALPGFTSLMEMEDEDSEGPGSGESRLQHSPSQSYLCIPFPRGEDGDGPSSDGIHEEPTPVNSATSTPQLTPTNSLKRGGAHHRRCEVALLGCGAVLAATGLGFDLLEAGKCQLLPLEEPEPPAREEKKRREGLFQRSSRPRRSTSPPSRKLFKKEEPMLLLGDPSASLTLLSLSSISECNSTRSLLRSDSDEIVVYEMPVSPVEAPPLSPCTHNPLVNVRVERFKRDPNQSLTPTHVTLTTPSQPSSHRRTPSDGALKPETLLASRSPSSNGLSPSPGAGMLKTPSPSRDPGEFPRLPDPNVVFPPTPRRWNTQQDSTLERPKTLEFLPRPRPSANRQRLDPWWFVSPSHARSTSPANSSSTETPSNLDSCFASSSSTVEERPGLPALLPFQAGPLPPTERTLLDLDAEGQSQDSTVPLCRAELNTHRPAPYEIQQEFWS
Sequence of UniProt P35590 (whole entry, looked up): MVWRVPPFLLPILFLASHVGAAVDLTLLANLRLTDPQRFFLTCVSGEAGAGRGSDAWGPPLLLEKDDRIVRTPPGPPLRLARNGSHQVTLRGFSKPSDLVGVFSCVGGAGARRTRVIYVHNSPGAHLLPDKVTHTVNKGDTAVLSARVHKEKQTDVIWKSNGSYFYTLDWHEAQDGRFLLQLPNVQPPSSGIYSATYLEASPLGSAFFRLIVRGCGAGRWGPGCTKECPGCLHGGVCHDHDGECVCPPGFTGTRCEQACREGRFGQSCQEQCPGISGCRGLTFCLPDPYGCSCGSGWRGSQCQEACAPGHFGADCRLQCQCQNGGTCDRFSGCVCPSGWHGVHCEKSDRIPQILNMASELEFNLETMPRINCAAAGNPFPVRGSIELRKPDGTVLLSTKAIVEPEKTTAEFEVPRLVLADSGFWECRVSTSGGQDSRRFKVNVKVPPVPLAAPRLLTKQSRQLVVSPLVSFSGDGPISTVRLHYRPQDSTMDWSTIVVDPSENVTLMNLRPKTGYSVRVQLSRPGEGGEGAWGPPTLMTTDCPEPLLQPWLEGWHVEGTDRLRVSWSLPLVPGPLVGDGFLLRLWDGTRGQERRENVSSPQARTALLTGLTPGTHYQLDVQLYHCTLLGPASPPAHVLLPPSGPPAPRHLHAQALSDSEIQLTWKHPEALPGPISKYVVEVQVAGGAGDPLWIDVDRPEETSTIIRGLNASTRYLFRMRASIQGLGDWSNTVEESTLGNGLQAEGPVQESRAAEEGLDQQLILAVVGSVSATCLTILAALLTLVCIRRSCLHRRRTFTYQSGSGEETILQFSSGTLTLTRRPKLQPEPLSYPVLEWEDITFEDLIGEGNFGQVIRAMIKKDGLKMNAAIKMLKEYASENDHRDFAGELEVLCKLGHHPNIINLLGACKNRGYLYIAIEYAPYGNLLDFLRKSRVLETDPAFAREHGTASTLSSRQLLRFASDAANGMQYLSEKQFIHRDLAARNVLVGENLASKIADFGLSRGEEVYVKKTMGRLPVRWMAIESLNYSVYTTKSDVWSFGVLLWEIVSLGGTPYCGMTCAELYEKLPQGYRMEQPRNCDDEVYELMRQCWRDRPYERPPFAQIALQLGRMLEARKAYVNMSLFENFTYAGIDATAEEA

Sample 1
Cell line: HaCaT
Tested at: 100 µM
Time: 18 h
Measurement: viability
Cc1cncc(CN2CCC(=C3c4ccc(Cl)cc4CCc4cccnc43)CC2)c1: 17.2%
CC[C@@H]([C@H](C)O)n1ncn(-c2ccc(N3CCN(c4ccc(OC[C@@H]5CO[C@@](Cn6cncn6)(c6ccc(F)cc6F)C5)cc4)CC3)cc2)c1=O: 52.6%
N#Cc1cc(-c2n[nH]c(-c3ccncc3)n2)ccn1: 55.5%
CCNC(=O)[C@@H]1CCCN1C(=O)[C@H](CCCNC(=N)N)NC(=O)[C@H](CC(C)C)NC(=O)[C@@H](C)NC(=O)[C@H](Cc1ccc(O)cc1)NC(=O)[C@H](CO)NC(=O)[C@H](Cc1c[nH]c2ccccc12)NC(=O)[C@H](Cc1c[nH]cn1)NC(=O)[C@@H]1CCC(=O)N1: 117%
Cc1nc(Nc2ccc(F)cc2)nc(N2CCc3ccccc3C2C)c1C (centres unmarked): 18.5%
Nc1nc(NC2CC2)c2ncn([C@H]3C=C[C@@H](CO)C3)c2n1: 96.1%

Sample 2
Host: human
Sample: microsomes or S9
Tested at: 2 µM
Time: 0.5 h
Measurement: remaining compound
CC(C)c1c(C(O)c2ccccc2)[nH]c(=O)[nH]c1=O (centres unmarked): 56.9%
O=C(Nc1ccc(N2CCCS2(=O)=O)cc1)NC1CCCCC1: 86.9%
COC(=O)c1ccc(Cn2cc(-c3nc(-c4cnccn4)no3)ccc2=O)o1: 27.9%
NS(=O)(=O)c1ccc(CNc2nc(Cl)nc3[nH]cnc23)cc1: 90.7%
CC(C)(C)OC(=O)CCc1nc(Cc2cccc3cccnc23)no1: 0.751%

Sample 3
Compound: CC(C)n1cnc(-c2ccc(F)cc2)c1-c1ncc(C(=O)Nc2ccc(N3CCN(C)CC3)cc2)[nH]1
Technique: phase 2a trial
Host: idiopathic pulmonary fibrosis patients
Dose: all dose arms pooled
Measurement: patients with eye swelling
grade 2: 0%
grade 4: 0%
grade 5: 0%
grade 3: 0%

Sample 4
Target: CRBN/Zinc finger protein Helios (Homo sapiens, UniProt Q96SW2+Q9UKS7)
Sequence of UniProt Q9UKS7 (whole entry, looked up): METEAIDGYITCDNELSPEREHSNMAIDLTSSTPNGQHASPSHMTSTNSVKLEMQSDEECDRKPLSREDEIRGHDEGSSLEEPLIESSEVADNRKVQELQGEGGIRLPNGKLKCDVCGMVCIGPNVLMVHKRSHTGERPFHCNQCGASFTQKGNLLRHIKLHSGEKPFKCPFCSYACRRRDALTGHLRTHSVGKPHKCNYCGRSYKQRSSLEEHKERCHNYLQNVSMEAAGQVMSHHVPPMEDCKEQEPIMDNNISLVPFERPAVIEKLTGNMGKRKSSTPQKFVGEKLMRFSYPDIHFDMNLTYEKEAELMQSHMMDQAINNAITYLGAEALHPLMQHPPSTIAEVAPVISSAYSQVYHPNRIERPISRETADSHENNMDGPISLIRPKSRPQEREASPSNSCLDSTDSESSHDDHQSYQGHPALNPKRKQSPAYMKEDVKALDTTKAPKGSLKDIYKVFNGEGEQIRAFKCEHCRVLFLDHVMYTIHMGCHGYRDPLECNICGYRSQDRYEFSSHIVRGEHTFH
Sequence of UniProt Q96SW2 (whole entry, looked up): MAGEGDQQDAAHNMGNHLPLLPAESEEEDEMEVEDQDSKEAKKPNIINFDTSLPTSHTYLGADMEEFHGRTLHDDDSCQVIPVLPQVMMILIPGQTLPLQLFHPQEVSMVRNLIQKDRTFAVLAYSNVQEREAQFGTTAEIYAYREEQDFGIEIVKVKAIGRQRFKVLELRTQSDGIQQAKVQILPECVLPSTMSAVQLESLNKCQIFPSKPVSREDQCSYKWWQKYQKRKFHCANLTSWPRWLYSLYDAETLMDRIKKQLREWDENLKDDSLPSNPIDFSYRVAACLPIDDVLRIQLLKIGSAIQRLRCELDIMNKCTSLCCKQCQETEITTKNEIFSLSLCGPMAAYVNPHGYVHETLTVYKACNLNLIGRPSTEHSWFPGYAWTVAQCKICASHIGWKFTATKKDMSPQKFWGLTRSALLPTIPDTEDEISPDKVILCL
Mode: degrader
Technique: HiBiT
Cell line: HEK293
Tested at: 3333.33 nM
Measurement: protein remaining
O=C1CCC(N2Cc3c(ccc4c3OCCC43CCN(Cc4ccccc4)CC3)C2=O)C(=O)N1 (centres unmarked): 63.4%
O=C1CCC(N2Cc3c(ccc4c3OCC43CCC(Cc4ccccc4)CC3)C2=O)C(=O)N1 (centres unmarked): 88.8%
O=C1CCC(N2Cc3c(ccc4c3OCC43CCC(Oc4ccccc4)CC3)C2=O)C(=O)N1 (centres unmarked): 65.7%

Sample 5
Structure (SMILES): CN([C@@H]1CCc2c(CC(=O)O)c3cc(S(C)(=O)=O)ccc3n2C1)S(=O)(=O)c1ccc(F)cc1
Technique: competition with immobilised ligand
Tested at: 1 µM
Measurement: remaining binding
Mitogen-activated protein kinase kinase kinase 13 (MAP3K13, Homo sapiens, UniProt O43283); cell-free assay: 100%
Serine/threonine-protein kinase NIM1 (NIM1K, Homo sapiens, UniProt Q8IY84); cell-free assay: 100%
Tyrosine-protein kinase ABL1, phosphorylated (ABL1, Homo sapiens, UniProt P00519, E255K); binding: 100%
Serine/threonine-protein kinase WNK2 (WNK2, Homo sapiens, UniProt Q9Y3S1); cell-free assay: 80%
Serine/threonine-protein kinase tousled-like 1 (TLK1, Homo sapiens, UniProt Q9UKI8); cell-free assay: 100%
TGF-beta receptor type-2 (TGFBR2, Homo sapiens, UniProt P37173); cell-free assay: 67%
Tyrosine-protein kinase receptor Tie-1 (TIE1, Homo sapiens, UniProt P35590); cell-free assay: 95%
Phosphorylase b kinase gamma catalytic chain, skeletal muscle/heart isoform (PHKG1, Homo sapiens, UniProt Q16816); cell-free assay: 100%
Serine/threonine-protein kinase SIK3 (SIK3, Homo sapiens, UniProt Q9Y2K2); cell-free assay: 89%
Cyclin-dependent kinase 8 (CDK8, Homo sapiens, UniProt P49336); cell-free assay: 100%
Interleukin-1 receptor-associated kinase 1 (IRAK1, Homo sapiens, UniProt P51617); cell-free assay: 91%
Ribosomal protein S6 kinase beta-1 (RPS6KB1, Homo sapiens, UniProt P23443); cell-free assay: 100%
Dual specificity mitogen-activated protein kinase kinase 3 (MAP2K3, Homo sapiens, UniProt P46734); cell-free assay: 88%
Serine/threonine-protein kinase PAK 4 (PAK4, Homo sapiens, UniProt O96013); cell-free assay: 100%
Mitogen-activated protein kinase kinase kinase kinase 4 (MAP4K4, Homo sapiens, UniProt O95819); cell-free assay: 100%
G protein-coupled receptor kinase 3 (GRK3, Homo sapiens, UniProt P35626); cell-free assay: 81%
Mitogen-activated protein kinase kinase kinase 9 (MAP3K9, Homo sapiens, UniProt P80192); cell-free assay: 91%
